Measured values of several laboratories.
Values joined by “and” are separate records of one study, mostly repeats; a detail may differ. ± marks the error that the study gave.
ache: Acetylcholinesterase (ache, Electrophorus electricus, UniProt O42275)
UniProt O42275, sequence (whole entry, looked up): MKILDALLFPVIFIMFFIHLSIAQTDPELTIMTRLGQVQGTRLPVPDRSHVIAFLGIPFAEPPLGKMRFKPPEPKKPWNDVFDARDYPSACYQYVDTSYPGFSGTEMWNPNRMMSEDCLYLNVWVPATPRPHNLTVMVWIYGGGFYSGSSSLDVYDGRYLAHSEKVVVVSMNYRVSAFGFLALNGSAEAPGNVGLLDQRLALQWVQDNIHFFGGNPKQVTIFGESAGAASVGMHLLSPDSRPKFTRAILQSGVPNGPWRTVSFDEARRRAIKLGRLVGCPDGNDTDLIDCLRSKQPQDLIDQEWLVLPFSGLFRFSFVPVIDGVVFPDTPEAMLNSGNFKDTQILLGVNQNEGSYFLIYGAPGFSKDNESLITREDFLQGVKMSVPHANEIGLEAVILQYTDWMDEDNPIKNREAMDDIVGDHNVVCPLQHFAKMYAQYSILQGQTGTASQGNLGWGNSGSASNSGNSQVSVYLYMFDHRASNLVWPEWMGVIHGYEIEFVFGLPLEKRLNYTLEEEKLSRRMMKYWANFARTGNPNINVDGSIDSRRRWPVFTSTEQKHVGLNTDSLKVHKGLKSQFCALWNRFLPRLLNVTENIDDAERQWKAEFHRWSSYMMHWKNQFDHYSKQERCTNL
UniProt P04150, sequence (whole entry, looked up): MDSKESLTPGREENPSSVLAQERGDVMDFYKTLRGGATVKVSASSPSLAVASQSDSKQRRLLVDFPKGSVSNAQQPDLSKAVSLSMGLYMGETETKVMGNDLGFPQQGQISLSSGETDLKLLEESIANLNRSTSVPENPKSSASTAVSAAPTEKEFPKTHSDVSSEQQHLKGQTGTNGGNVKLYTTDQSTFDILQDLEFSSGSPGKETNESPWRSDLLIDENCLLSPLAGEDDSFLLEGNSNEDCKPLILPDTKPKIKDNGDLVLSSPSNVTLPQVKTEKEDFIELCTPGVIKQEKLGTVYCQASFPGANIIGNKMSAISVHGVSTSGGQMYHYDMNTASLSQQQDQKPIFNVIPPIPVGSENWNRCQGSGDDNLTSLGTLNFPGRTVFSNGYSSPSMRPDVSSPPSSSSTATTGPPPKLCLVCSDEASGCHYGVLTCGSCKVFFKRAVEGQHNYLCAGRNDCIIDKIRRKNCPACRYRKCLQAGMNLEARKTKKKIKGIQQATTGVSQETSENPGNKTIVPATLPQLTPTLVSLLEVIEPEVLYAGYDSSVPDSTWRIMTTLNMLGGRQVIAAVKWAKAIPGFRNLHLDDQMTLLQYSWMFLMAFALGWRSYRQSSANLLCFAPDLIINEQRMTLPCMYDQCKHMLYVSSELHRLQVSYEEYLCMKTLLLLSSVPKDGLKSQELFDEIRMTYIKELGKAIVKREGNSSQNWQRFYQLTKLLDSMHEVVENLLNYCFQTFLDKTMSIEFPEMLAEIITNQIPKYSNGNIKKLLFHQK
UniProt Q32ZE1, sequence (whole entry, looked up): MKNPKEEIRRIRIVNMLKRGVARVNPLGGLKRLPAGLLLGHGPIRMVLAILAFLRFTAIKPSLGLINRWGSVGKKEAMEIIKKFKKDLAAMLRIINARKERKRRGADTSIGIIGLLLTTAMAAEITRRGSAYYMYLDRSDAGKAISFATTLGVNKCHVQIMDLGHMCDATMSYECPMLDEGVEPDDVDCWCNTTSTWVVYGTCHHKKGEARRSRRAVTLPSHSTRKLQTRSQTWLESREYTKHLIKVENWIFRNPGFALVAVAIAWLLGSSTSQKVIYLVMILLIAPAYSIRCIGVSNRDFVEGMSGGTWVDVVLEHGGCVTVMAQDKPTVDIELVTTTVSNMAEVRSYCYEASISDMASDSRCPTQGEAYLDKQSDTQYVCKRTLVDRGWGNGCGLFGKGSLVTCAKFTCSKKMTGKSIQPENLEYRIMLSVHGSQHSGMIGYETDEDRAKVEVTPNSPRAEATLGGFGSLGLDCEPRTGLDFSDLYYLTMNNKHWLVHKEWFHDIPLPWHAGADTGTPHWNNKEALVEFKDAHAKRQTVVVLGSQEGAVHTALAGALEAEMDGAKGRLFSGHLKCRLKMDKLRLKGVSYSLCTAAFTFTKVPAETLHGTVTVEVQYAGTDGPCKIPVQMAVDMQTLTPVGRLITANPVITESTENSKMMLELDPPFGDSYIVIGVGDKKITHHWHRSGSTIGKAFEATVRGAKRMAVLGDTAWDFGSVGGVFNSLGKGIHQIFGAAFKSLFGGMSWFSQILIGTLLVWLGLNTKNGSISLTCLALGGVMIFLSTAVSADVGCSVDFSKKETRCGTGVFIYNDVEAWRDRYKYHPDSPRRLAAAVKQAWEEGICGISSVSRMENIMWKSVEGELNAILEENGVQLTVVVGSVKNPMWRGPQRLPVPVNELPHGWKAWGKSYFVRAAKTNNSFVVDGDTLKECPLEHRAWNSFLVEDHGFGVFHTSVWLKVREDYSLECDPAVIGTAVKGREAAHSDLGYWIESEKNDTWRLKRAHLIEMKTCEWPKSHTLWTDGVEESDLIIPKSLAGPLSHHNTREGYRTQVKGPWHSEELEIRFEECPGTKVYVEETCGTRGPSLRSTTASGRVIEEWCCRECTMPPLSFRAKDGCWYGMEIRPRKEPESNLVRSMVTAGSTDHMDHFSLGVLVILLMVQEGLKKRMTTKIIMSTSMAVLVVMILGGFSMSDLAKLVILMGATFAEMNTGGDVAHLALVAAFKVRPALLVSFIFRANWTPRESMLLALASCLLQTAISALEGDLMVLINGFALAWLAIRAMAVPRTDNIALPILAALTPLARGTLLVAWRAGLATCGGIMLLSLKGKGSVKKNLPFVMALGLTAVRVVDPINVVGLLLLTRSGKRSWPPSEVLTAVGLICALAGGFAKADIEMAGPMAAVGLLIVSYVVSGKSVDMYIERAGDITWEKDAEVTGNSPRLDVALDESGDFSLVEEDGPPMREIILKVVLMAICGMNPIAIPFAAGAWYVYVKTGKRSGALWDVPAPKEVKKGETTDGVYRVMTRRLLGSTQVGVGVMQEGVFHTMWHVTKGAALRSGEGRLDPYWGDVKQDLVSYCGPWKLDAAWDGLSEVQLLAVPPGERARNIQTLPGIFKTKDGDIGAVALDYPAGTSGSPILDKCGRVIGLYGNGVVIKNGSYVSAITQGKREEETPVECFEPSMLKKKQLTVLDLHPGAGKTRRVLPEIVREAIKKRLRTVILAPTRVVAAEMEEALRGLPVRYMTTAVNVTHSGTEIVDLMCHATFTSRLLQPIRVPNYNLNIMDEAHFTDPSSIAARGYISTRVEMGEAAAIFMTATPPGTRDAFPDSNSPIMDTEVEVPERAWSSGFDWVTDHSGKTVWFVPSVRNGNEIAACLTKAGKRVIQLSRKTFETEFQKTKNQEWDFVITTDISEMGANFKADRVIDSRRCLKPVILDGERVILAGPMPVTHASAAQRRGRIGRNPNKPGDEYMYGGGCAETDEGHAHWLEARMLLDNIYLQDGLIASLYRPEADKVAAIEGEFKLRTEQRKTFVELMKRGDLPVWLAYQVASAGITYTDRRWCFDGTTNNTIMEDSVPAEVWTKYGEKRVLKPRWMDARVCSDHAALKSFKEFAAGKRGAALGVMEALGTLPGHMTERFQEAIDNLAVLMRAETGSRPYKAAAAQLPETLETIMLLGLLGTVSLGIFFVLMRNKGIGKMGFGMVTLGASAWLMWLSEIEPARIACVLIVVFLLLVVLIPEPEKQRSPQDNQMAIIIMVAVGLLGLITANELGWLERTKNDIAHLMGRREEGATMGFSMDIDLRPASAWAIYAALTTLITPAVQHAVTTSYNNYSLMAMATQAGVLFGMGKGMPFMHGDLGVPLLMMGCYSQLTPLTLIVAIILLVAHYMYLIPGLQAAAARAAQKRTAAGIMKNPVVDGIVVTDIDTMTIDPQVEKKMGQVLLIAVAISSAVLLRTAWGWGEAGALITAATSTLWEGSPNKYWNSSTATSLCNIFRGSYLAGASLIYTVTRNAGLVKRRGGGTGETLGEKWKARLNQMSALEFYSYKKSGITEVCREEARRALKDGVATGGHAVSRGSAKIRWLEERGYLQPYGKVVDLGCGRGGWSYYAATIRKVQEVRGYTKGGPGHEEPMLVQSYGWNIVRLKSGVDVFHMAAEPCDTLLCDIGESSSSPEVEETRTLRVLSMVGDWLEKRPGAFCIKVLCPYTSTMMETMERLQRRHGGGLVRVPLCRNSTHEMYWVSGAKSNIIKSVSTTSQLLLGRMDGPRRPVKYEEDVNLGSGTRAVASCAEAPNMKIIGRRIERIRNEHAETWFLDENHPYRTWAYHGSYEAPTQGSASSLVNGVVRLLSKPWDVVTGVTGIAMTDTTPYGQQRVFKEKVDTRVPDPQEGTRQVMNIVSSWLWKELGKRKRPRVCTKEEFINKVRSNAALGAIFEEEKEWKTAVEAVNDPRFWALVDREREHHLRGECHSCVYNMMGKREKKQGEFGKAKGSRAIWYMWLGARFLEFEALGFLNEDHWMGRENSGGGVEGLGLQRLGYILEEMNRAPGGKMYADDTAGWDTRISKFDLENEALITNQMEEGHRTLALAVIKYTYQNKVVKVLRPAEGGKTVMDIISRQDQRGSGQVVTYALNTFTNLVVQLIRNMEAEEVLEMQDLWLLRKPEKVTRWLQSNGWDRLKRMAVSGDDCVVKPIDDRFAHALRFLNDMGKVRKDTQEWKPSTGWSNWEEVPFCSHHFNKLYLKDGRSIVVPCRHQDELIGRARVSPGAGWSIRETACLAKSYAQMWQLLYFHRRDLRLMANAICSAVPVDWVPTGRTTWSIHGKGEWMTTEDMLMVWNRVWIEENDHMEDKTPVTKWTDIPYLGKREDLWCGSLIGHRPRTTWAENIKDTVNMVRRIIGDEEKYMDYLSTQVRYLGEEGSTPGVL

SMILES = Cc1cc(Nc2nc(C[C@@]3(C(=O)O)CCN(Cc4cccc(Cl)c4F)[C@H](C)C3)cc(C)c2F)[nH]n1; target or system = NR3C1 (Homo sapiens, UniProt P04150); assay = inhibitor; setting = 10 µM; measurement = inhibition; value = 71.3%
SMILES = CC(C)[C@H]1NC(=O)C[C@H]2/C=C/CCSSC[C@@H](NC1=O)C(=O)N[C@H](Cc1cccc3ccccc13)C(=O)NCC(=O)O2; target or system = WNK1 (Homo sapiens, UniProt Q9H4A3); assay = enzyme activity, inhibitor; setting = 10 µM; measurement = inhibition; value = 0.9%
SMILES = CN[C@@H]1[C@H](O)[C@H](NC)[C@H]2O[C@]3(O)[C@H](O[C@@H]2[C@H]1O)O[C@H](C)C[C@H]3NC(=O)Cc1cc(Cl)ccn1; target or system = HTR3A (Homo sapiens, UniProt P46098); assay = ligand displacement, radioligand; setting = 10 µM; measurement = inhibition; value = -15%
SMILES = CN(C)[C@H]1C[C@@]23CC[C@@]4(O2)C(=CC[C@]2(C)[C@@H](c5ccc6ccncc6c5)CC[C@H]24)C=C3[C@@H](O)[C@@H]1O; target or system = MAP3K21 (Homo sapiens, UniProt Q5TCX8); assay = ATP probe labelling, inhibitor, KiNativ profiling; setting = 1 µM; measurement = inhibition; value = 14.9%
SMILES = O=S(=O)(F)CCc1cn(-c2ccc(F)cc2)nn1; target or system = ache; assay = Ellman; setting = 20 µM; measurement = inhibition; value = 36.1 ± 3.3%
SMILES = COc1ccccc1-c1n[nH]c2nc(NC3CCN(C(=O)Cc4ccc(F)cc4F)CC3)ncc12; assay = bead binding, competition bead pull-down, measured: LMJF.34.3980; test system = Leishmania donovani axenic amastigote extract; setting = 10 µM; scale = baseline: vehicle; measurement = relative abundance; value = 1.28
SMILES = CCOC(=O)[C@](CC)(CCCSCCOCCOCCNC(=O)c1ccc(-c2c3ccc(=N)c(S(=O)(=O)O)c-3oc3c(S(=O)(=O)O)c(N)ccc23)c(C(=O)O)c1)NC(=O)c1ccc(C2CC2)c(Cc2ccc(F)cc2)n1; target or system = CHRNA1/CHRNG/CHRND (Homo sapiens, UniProt P02708+P07510+Q07001); assay = specific binding, antagonist radioligand binding; setting = 10 µM; measurement = inhibition; value = 14%
SMILES = BP(=O)(OC[C@H]1O[C@@H](n2c[n+](C)c3c(O)nc(N)nc32)[C@H](O)[C@@H]1O)OP(=O)([O-])CP(=O)([O-])OP(B)(=O)OC[C@H]1O[C@@H](n2c[n+](C)c3c(O)nc(N)nc32)[C@H](O)[C@@H]1O (stereo partly drawn); target or system = mRNA decapping complex subunit 2, with Dcp1 (dcp2, Schizosaccharomyces pombe, UniProt O13828); setting = 200 µM, 0.25 h; measurement = inhibition; value = 29%
SMILES = O=C1NC2(CC2)COc2ncc(F)cc2[C@H]2COCCN2c2ccn3ncc1c3n2; test system = Sprague-Dawley rat, female, blood; setting = oral, 20 mg/kg/day, end of recovery, 4-week repeated-dose toxicity; scale = baseline: red blood cells; measurement = reticulocytes; value = 2.08 ± 0.69%
SMILES = O=C1NC(=O)c2c1c1cc(F)c[n+]3c1c1c2c2cc(O)ccc2[n]1[Ru-4]312([N]=C=S)[S+]3CC[S+]1CC[S+]2CC3 (stereo not drawn); target or system = MAPKAPK2 (Homo sapiens, UniProt P49137); assay = enzyme activity; setting = 100 nM, human enzyme, together with: 10 µM ATP; scale = baseline: untreated; measurement = remaining activity; value = 112%
SMILES = C=CCNc1nc2cc(-c3ccc(OCCCNC)nc3)sc2c(=O)n1C; target or system = ache; assay = enzyme activity, inhibitor, Ellman; setting = 5 µM; measurement = inhibition; value = 66.5%
SMILES = CS(C)(=O)=Nc1ccc(-c2ccc(-c3nc4cc(O[C@@H]5CO[C@H]6[C@@H]5OC[C@H]6O)[nH]c4cc3F)cc2)cc1; target or system = DMPK (Homo sapiens, UniProt Q09013); assay = enzyme activity, inhibitor; setting = 10 µM; measurement = inhibition; value = 0%
SMILES = C[C@H](NCc1ccc(-c2ccc(C(F)(F)F)cc2)cc1)C(N)=O; target or system = kainate receptor, rat; assay = binding, radioligand binding; test system = biochemical; setting = 1 µM, together with: [3H]kainic acid 5.0 nM; measurement = inhibition; value = -1%
SMILES = CN(/N=C/c1ccccc1C(=O)O)c1nc(-c2ccccc2Cl)cs1; target or system = SRM kinase; assay = kinase activity, inhibitor; setting = 1 µM; measurement = inhibition; value = 7.81% and 9.66%
SMILES = CC(C)(C)C(=O)OCOP(=O)(OCOC(=O)C(C)(C)C)C1CCCN(O)C1=O (stereo not drawn); target or system = MDA-MB-231; measurement = TGI; value = 20 µM
SMILES = O=C(NC1CCN(c2ncnc3[nH]cnc23)CC1)c1cccc(NS(=O)(=O)c2ccc(C(F)(F)F)cc2)c1; target or system = Genome polyprotein, NS5 methyltransferase domain (Zika virus, UniProt Q32ZE1); assay = NS5 enzyme activity, inhibitor; setting = 6.25 µM; measurement = inhibition; value = -4.08%
SMILES = Cc1sc2c(c1C)C(c1ccc(Cl)cc1)=NC(CC(=O)OC(C)(C)C)c1nnc(C)n1-2 (stereo not drawn); target or system = Htr1b (Rattus norvegicus, UniProt P28564); assay = ligand displacement, radioligand; setting = 1 µM; measurement = remaining binding; value = 104%
SMILES = COc1ccccc1-c1n[nH]c2nc(N[C@H]3CC[C@H](NS(=O)(=O)CC(C)C)CC3)ncc12; assay = bead binding, competition bead pull-down, measured: LINJ.36.2070; test system = Leishmania donovani extract; setting = 10 µM; scale = baseline: vehicle; measurement = relative abundance; value = 0.81

For quick reference, copied from above:
SMILES = CC(C)(C)C(=O)OCOP(=O)(OCOC(=O)C(C)(C)C)C1CCCN(O)C1=O (stereo not drawn); target or system = MDA-MB-231; measurement = TGI; value = 20 µM
SMILES = O=C(NC1CCN(c2ncnc3[nH]cnc23)CC1)c1cccc(NS(=O)(=O)c2ccc(C(F)(F)F)cc2)c1; target or system = Genome polyprotein, NS5 methyltransferase domain (Zika virus, UniProt Q32ZE1); assay = NS5 enzyme activity, inhibitor; setting = 6.25 µM; measurement = inhibition; value = -4.08%
